Experimental data of several laboratories.
Each line is one published result; not all experiments were run side by side. Values joined by “and” are separate records of one study, mostly repeats; a detail may differ. ± marks the error that the study gave.

SMILES	tested on	assay	system	setting	how to read	measurement	result
COc1cc(N2CCN(C(=O)CN)CC2)ccc1Nc1ncc(Cl)c(Nc2ccccc2P(C)(C)=O)n1	NCI-H3122	cell growth or viability, CCK-8	–	10 nM, 48 h	–	viability	81% and 87%
COC1CN([C@H]2CC[C@H]([C@@]3(C)Oc4c(Cl)cc(C(=O)NCc5c(SC)cc(C)[nH]c5=O)c(C)c4O3)CC2)C1	–	RNA-seq, measured: CLCN1 mouse homolog	mouse, HT-1376 xenograft, whole blood	dose not given	reference: vehicle	log2 fold change	0.517
O=CCNCCOn1c(=O)n(OCCNCCO)c(=O)n(OCCNCCOn2c(=O)n(OCCNCCO)c(=O)n(OCCNCCO)c2=O)c1=O	HUVEC	cell growth or viability, MTT	–	25 µg/mL, 24 h	–	viability	66.9%
CC(C)=CCc1c(O)c(CC=C(C)C)c2occ(-c3ccc(O)c(O)c3)c(=O)c2c1O	K562	cell growth or viability, MTT	–	100 µg/mL	–	viability	95.8%
CO[C@H]1C=C[C@@H](OC(=O)c2ccccc2)[C@H](O)[C@@]1(O)COC(=O)c1ccccc1	K562	cell growth or viability, MTT	–	100 µg/mL	–	viability	75.1%
C=CC(=O)Nc1cccc(Cn2ncc3cnc(Nc4cnn(CCOC)c4)nc32)c1	CSNK1G2 human	binding, KINOMEscan	–	100 nM	lower = stronger binding	percent of control	94%
Cc1ncsc1-c1ccc(C(C)NC(=O)C2CC(O)CN2C(=O)C(NC(=O)CCCCCCCCCCN2CCCC(Nc3ncc(Cl)c(Nc4ccccc4S(=O)(=O)C(C)C)n3)C2)C(C)(C)C)cc1 (stereo not drawn)	22Rv1	RNA-seq, measured: TAB1 mRNA	–	concentration not given	reference: DMSO	log2 fold change	-1.12
CCc1c(-c2ccc3[nH]ncc3c2)cnc(N)c1-c1ccc(O)cc1	CHP-212 resistant sublines (heterozygous USP7 V517F)	cell viability	–	1.562 µM	–	viability	106% and 105%
C=Cc1c(C)c2cc3nc(c(CC(=O)OCCOCCOCCOC)c4[nH]c(cc5nc(cc1[nH]2)C(C)=C5CC)c(C)c4C(=O)O)[C@@H](CCC(=O)OCCOCCOCCOC)[C@@H]3C	OVCAR-5	MTT	–	1.0 µM, 4 h, dark	–	viability	~20%
COc1cc2c(cc1OC)[C@@H]1C(=O)c3c(O)cc4c(c3O[C@@H]1CO2)C=CC(C)(C)O4	K562	cell growth or viability, MTT	–	100 µg/mL	–	viability	91.8%
Cc1nc(Nc2ncc(C(=O)Nc3c(C)cccc3Cl)s2)cc(N2CCN(C(=O)CCOCCNC(=O)CN)CC2)n1	K562	cell growth or viability, CCK-8	–	1 nM	–	viability	86% and 87% and 89%
C=C(NC(=O)c1csc(-c2nc3c(cc2O)-c2nc(cs2)C(=O)NC(C(C)O)C(=O)NC(=C(C)OC)c2nc(cs2)C(=O)NC2c4nc(cs4)C(=O)NC(COC(=O)c4c5c6c(cccc6n4O)COC(=O)C(OC4CC(C)(O)C(N(C)C)C(C)O4)C2OC5)c2nc-3cs2)n1)C(N)=O (stereo not drawn)	–	–	cynomolgus monkey, plasma	intravenous, 1 mg/kg, single dose, infusion	–	AUC(0-inf)	8280 ng·h/mL
CCCC[C@H](NC(=O)COCCOCCNC(=O)CN1CCN(CC(=O)O)CCN(CC(=O)O)CC1)C(=O)N[C@H]1CC(=O)NCCCC[C@@H](C(N)=O)NC(=O)[C@H](Cc2c[nH]c3ccccc23)NC(=O)[C@H](CCCNC(=N)N)NC(=O)[C@@H](Cc2ccccc2)NC(=O)[C@H](Cc2c[nH]cn2)NC1=O [technetium-99m labelled]	–	–	C57 mouse, stomach	intravenous, 0.037 MBq, 0.5 h	–	tissue uptake	2.06 ± 0.65 %ID/g
Cc1cc(Cl)cc(-c2ccnc3cc(CN4C(=O)C5C(C4=O)C5(C)C)sc23)c1C[C@@H]1CNCCO1 (stereo partly drawn)	Capan-1 USP7 inhibitor-resistant pool	SRB	–	20 µM, 5 days	–	viability	0.859% and -0.131% and 0.672%
O=C(OC[C@@]1(O)C(=O)C=C[C@H]2[C@@H]1[C@H]1C=C[C@@H]2C(=O)[C@]1(O)COC(=O)c1ccccc1)c1ccccc1	K562	cell growth or viability, MTT	–	25 µg/mL	–	viability	66.1%
COc1ccc(Cn2cc(CO[C@@H]3O[C@H]4[C@H](OC[C@H]4O)[C@H]3N=[N+]=[N-])nn2)cc1	CHO-K1	cytotoxicity, CellTiter-Glo	–	up to 30 µM, 72 h	–	viability	not toxic
CCN(CC)CC#CCNc1ccnc2cc(Cl)ccc12	Salmonella typhimurium	mini-Ames test	TA1535	125.0 µg/well, with rat liver S9	–	revertants	2 revertants/well and 6 revertants/well
CCOC(=O)C1CC(CC)C2C=CC3CCN(C(=O)C4CCC5C=CC6(CCCN6C(=O)C(Cc6ccccc6Cl)NC(C)=O)C(=O)N54)C3C(=O)N12 (stereo not drawn)	B16-F1	–	–	180 µM, 24 h, Ena/VASP knockout, and wild type	–	viability	not toxic
CC(C)C[C@H](NC(=O)[C@@H](CCCCNC(=O)[C@@H](Cc1ccccc1)NC(=O)CCCCCNC(=O)CN1CCN(CC(=O)O)CCN(CC(=O)O)CCN(CC(=O)O)CC1)NC(=O)[C@H](Cc1ccc(O)cc1)NC(=O)[C@H](CO)NC(=O)[C@H](Cc1c[nH]c2ccccc12)NC(=O)[C@H](Cc1c[nH]cn1)NC(=O)[C@@H]1CCC(=O)N1)C(=O)N[C@@H](CCCNC(=N)N)C(=O)N1CCC[C@H]1C(=O)NCC(N)=O [indium-111 labelled]	–	–	female athymic nude mice, pancreas	intravenous, 0.037 MBq, 1 h	–	tissue uptake	0.09 ± 0.03 %ID/g
COc1cc(OC)c(-c2coc3c4c(cc(O)c3c2=O)OC(C)(C)C=C4)cc1OC	K562	cell growth or viability, MTT	–	100 µg/mL	–	viability	77.9%
O=C(O)c1c(O)cc(O[C@@H]2O[C@H](CO)[C@@H](O)[C@H](O)[C@H]2O)cc1/C=C/c1ccccc1	MLE12	cell growth or viability, crystal violet	–	50 µM, 48 h	–	viability	> 50%

For quick reference, copied from above:
SMILES	tested on	assay	system	setting	how to read	measurement	result
CO[C@H]1C=C[C@@H](OC(=O)c2ccccc2)[C@H](O)[C@@]1(O)COC(=O)c1ccccc1	K562	cell growth or viability, MTT	–	100 µg/mL	–	viability	75.1%
O=CCNCCOn1c(=O)n(OCCNCCO)c(=O)n(OCCNCCOn2c(=O)n(OCCNCCO)c(=O)n(OCCNCCO)c2=O)c1=O	HUVEC	cell growth or viability, MTT	–	25 µg/mL, 24 h	–	viability	66.9%
